Measured values gathered from unrelated publications.
Lines come from different studies, so protocols differ. Several values in a cell are separate wells, animals, samples, runs or records. Numbers after ± are the reported error.
SLC6A6 Y138A: Sodium- and chloride-dependent taurine transporter (SLC6A6, Homo sapiens, UniProt P31641, Y138A)
MT-CYB/UQCRFS1: MT-CYB/UQCRFS1 (Homo sapiens, UniProt P00156+P47985)
Dehaloperoxidase B ferric: Dehaloperoxidase B, ferric (Amphitrite ornata, UniProt Q9NAV7)

SMILES = CC[C@@H](C)[C@@H](NC(=O)[C@@H](Cc1ccc(O)cc1)NC(=O)[C@H]1CCCN1C(=O)[C@@H](CCCNC(=N)N)NC(=O)[C@H](N)Cc1c[nH]cn1)C(=O)N[C@H](C)C(=O)N[C@H](Cc1c[nH]cn1)C(=O)N[C@H](CCCNC(=N)N)C(=O)N[C@@H](C(=O)N[C@H](Cc1ccc(O)cc1)C(=O)N[C@H](CO)C(=O)N[C@H](Cc1ccccc1)C(N)=O)C(C)C; tested on = Transferrin receptor protein 1 (Tfrc, Mus musculus, UniProt Q62351); test = flow cytometry; test system = B16; setting = 6 h, unit not given; scale = reference: 0 h; measurement = surface expression; value = 0.667 and 0.668
SMILES = COc1cc(O)c2c(c1)C(=O)c1cc(C)cc(O)c1C2=O; tested on = HK-2 co-cultured with HepaRG; test = MTT; setting = 266.67 µM, 48 h; scale = reference: untreated control; measurement = viability; value = 28.8 ± 3.98%
SMILES = CC[C@H](C)[C@H](NC(C)=O)C(=O)N[C@@H](CC(N)=O)C(=O)N[C@H](C(=O)N[C@@H](CCCNC(=N)N)C(=O)N[C@@H](CCCCN)C(=O)N[C@@H](CCCNC(=N)N)C(=O)N[C@@H](CC(N)=O)C(=O)N[C@H](C(=O)N[C@@H](CCC(=O)O)C(=O)N[C@@H](CO)C(=O)NCC(=O)N[C@@H](CCC(=O)O)C(=O)N[C@@H](CCC(=O)O)C(=O)N[C@@H](CCC(=O)O)C(=O)N[C@@H](CC(C)C)C(=O)N[C@@H](C)C(=O)N[C@@H](CO)C(=O)N[C@@H](CCCCN)C(=O)N[C@@H](CC(C)C)C(=O)N[C@@H](CC(=O)O)C(N)=O)C(C)C)C(C)C; tested on = Kelch-like ECH-associated protein 1, Kelch domain (KEAP1, Homo sapiens, UniProt Q14145); test = ITC; setting = concentration not given; measurement = binding stoichiometry; value = 1.08
SMILES = COc1cc(O)c2c(c1)oc(=O)c1c3cc(O)c(O)cc3oc21; tested on = MAL12 (Saccharomyces cerevisiae S288c, UniProt P53341); test = fluorescence quenching; setting = concentration not given, 307 K; measurement = number of binding sites; value = 1.05
SMILES = COc1c(O)c(C)cc2c1C(=O)c1c(ccc(O)c1O)C2=O; tested on = HK-2 co-cultured with HepaRG; test = MTT; setting = 266.67 µM, 48 h; scale = reference: untreated control; measurement = viability; value = 79.3 ± 19.7%
SMILES = Nc1nc2c(ncn2[C@@H]2O[C@H](COP(=O)(O)O)[C@@H](O)[C@H]2O)c(=O)[nH]1; tested on = GUK1 (Homo sapiens, UniProt Q16774); test = ITC; setting = concentration not given, with: 150 mM KCl; measurement = ΔG of binding; value = -7.06 kcal/mol and -7.01 kcal/mol
SMILES = O=C(O)c1ccc(Nc2ncc3c(n2)-c2ccc(Cl)cc2C(c2c(F)cccc2F)=NC3)cc1; tested on = human ZIPK(h); test = kinase activity; setting = 1 µM; measurement = remaining activity; value = 97%
SMILES = Cc1ccc(S(=O)(=O)Nc2ccc(C)cc2NS(=O)(=O)c2cccc(C(F)(F)F)c2)cc1; tested on = Protein lin-28 homolog A (Mus musculus, UniProt Q8K3Y3); measurement = Hill slope; value = -0.8
SMILES = Oc1ccccc1-c1n[nH]cc1-c1ccnc2ccccc12; tested on = TGFBR1 (Homo sapiens, UniProt P36897); scale = reference: IC50 on target over Yck2; measurement = selectivity ratio; value = 21
SMILES = CCCCC[C@H](O)/C=C/[C@H]1C(=O)C[C@H](O)[C@@H]1C/C=C\CCCC(=O)O; tested on = PTGDR (Homo sapiens, UniProt Q13258, M112A); test = agonist, ONE-GO BRET; setting = 0.002441 µM (2.44 nM); scale = reference: wild-type receptor maximum; measurement = Gs protein activation; value = 9.2%
SMILES = Nc1ncnc2c1ncn2[C@@H]1O[C@H](COP(=O)(O)OP(=O)(O)O)[C@@H](O)[C@H]1O; tested on = F-type ATP synthase, Macaca mulatta muscle; test = substrate, on-column ATP synthesis; setting = pH 7.4; measurement = Km; value = 1520 ± 461 µM
SMILES = O=S(=O)(O)C1CCNCC1; tested on = SLC6A6 Y138A; test = binding, microscale thermophoresis; setting = 15.6 µM, room temperature, with: 50 nM labelled protein; scale = higher = more binding; measurement = normalised MST signal; value = -0.0326
SMILES = NC(=O)NOCCCCCCCCCCCCCC[P+](c1ccccc1)(c1ccccc1)c1ccccc1.O=C([O-])C(F)(F)F; tested on = MT-CYB/UQCRFS1; test = complex III-dependent respiration, Seahorse XF96; test system = HCT-116; setting = 2 µM, 24 h; scale = reference: control; measurement = oxygen consumption rate; value = 35.1 ± 5.2%
SMILES = Cn1cc(-c2ccc(-c3cncc(Cl)c3N3CCC4(CCNC4=O)CC3)cc2)cn1; tested on = COLO 205; test = gene expression, microarray, refers to: CLU mRNA; setting = concentration not given, 6 h; scale = reference: untreated cells; measurement = log2 fold change; value = 2.28
SMILES = NCCCCC(=O)O; tested on = SLC6A6 Y138A; test = binding, microscale thermophoresis; setting = 125 µM, room temperature, with: 50 nM labelled protein; scale = higher = more binding; measurement = normalised MST signal; value = -0.0164
SMILES = Nc1ncnc2c1ncn2[C@@H]1O[C@H](COP(=O)(O)CP(=O)(O)OP(=O)(O)O)[C@@H](O)[C@H]1O; tested on = P2X purinoceptor 1 (P2RX1, Homo sapiens, UniProt P51575, R139A); test = calcium influx; setting = 10 nM; scale = reference: ionomycin response; measurement = calcium influx; value = 0.494% and 2.11% and 1.48%
SMILES = Oc1ccc(/C=C/c2cc(O)cc(O)c2)cc1; tested on = O-methyltransferase (Sorghum bicolor, UniProt A0A1B6PFV1); test = isothermal titration calorimetry; setting = concentration not given, apo protein; measurement = -TΔS of binding; value = 3.98 kcal/mol
SMILES = COc1ccc(F)cc1C(=O)NCc1ccc(-c2nn([C@@H](C)C(F)(F)F)c(N)c2C(N)=O)cc1; tested on = BTK (Homo sapiens, UniProt Q06187); test = differential scanning fluorimetry; scale = reference: apo protein; measurement = melting temperature shift; value = 13.5 °C
SMILES = NC(=O)NOCCCCCCCCCC[P+](c1ccccc1)(c1ccccc1)c1ccccc1.O=C([O-])C(F)(F)F; tested on = MT-CYB/UQCRFS1; test = complex III-dependent respiration, Seahorse XF96; test system = HCT-116; setting = 1 µM, 24 h; scale = reference: control; measurement = oxygen consumption rate; value = 95.2 ± 7.14%
SMILES = CCCC[C@H]1C(=O)N(C)[C@@H](CCCC)C(=O)N[C@@H](CCCCNC(=O)CN2CCN(CC(=O)O)CCN(CC(=O)O)CC2)C(=O)N[C@H](C(=O)NCC(N)=O)CSCC(=O)N[C@@H](Cc2ccc(O)cc2)C(=O)N(C)[C@@H](C)C(=O)N[C@@H](CC(N)=O)C(=O)N2CCC[C@H]2C(=O)N[C@@H](Cc2c[nH]cn2)C(=O)N[C@@H](CCC(=O)O)C(=O)N2C[C@H](O)C[C@H]2C(=O)N[C@@H](Cc2c[nH]c3ccccc23)C(=O)N[C@@H](CO)C(=O)N[C@@H](Cc2cn(CC(=O)O)c3ccccc23)C(=O)N1C [gallium-68 labelled]; tested on = CD274 (Homo sapiens, UniProt Q9NZQ7); test = PET/CT; test system = NSCLC patients PD-L1 TPS ≥50%; measurement = highest SUVmax; value = 12.4
SMILES = O=c1nc(SCc2cc(F)cc(C(F)(F)F)c2)nc(SCc2ccc3nc(OCCN4CCOCC4)ccc3c2)[nH]1; tested on = TOP2A (Homo sapiens, UniProt P11388); test = DNA cleavage; setting = 31.25 µM, replicate 2; measurement = linear DNA; value = 0%
SMILES = O=C1Nc2ccc(Br)cc2C1O (stereo not shown); tested on = Dehaloperoxidase B ferric; test = product, HPLC; setting = 5 min, pH 7, 25 °C, enzyme 10 µM, with: 5-bromoindole and H2O2 500 µM each; measurement = product formed; value = 9.3 M
SMILES = N[C@H](COP(=O)(O)O)Cc1c[nH]cn1; tested on = Beta1; test = substrate, coupled phosphate release; measurement = Km; value = 21 ± 5 µM
SMILES = CC(C)CC(=O)N[C@H](C(=O)N[C@H](C(=O)N[C@@H](CC(C)C)[C@@H](O)CC(=O)N[C@@H](C)C(=O)N[C@@H](CC(C)C)[C@@H](O)CC(=O)NCCOCCC(=O)NCCCC[C@H](NC(=O)CN1CCN(CC(=O)O)CCN(CC(=O)O)CC1)C(=O)O)C(C)C)C(C)C; tested on = Cathepsin D (CTSD, Homo sapiens, UniProt P07339); test = surface plasmon resonance; measurement = association rate constant; value = 232 M⁻¹ s⁻¹
SMILES = NC(=O)NO; tested on = MT-CYB/UQCRFS1; test = complex III-dependent respiration, Seahorse XF96; test system = HCT-116; setting = 200 µM, 24 h; scale = reference: control; measurement = oxygen consumption rate; value = 82.7 ± 3.74%
SMILES = CCNC(=O)/C=C/c1cccc(Br)c1; tested on = SLC6A19 (Homo sapiens, UniProt Q695T7); test = inhibitor, radiolabelled uptake; test system = CHO-BC cells; setting = 30 µM, with Na+, with: L-[14C]leucine, GPNA 3 mM, JPH203 3 µM; measurement = L-leucine uptake; value = 9.09 nmol/6 min/mg protein and 8.62 nmol/6 min/mg protein and 7.34 nmol/6 min/mg protein
SMILES = O=C1C=Nc2ccc(Br)cc21; tested on = Dehaloperoxidase B ferric; test = product, HPLC; setting = with: 5-bromoindole 500 µM, H2O2 100 µM; measurement = share of total products; value = 42.7%
SMILES = O=C(COP(=O)(O)O)[C@@H](O)[C@H](O)[C@H](O)COP(=O)(O)O; tested on = 14-3-3 protein eta (Homo sapiens, UniProt Q04917); test = thermal proteome profiling, refers to: YWHAH; test system = HepG2 cell lysate; setting = concentration not given, 57 over 37 °C, mean; scale = reference: compound over control; measurement = thermal stability ratio; value = 0.567
SMILES = CC(C)C[C@H](NC(=O)C[C@H](O)[C@H](CC(C)C)NC(=O)[C@H](Cc1c[nH]cn1)NC(=O)CNC(=O)[C@@H](NC(=O)[C@H](C)NC(=O)[C@H](Cc1c[nH]c2ccccc12)NC(=O)[C@H](CCC(N)=O)NC(=O)[C@@H](Cc1ccccc1)NC(=O)COCCOCCNC(=O)CCC(C(=O)O)N1CCN(CC(=O)O)CCN(CC(=O)O)CCN(CC(=O)O)CC1)C(C)C)C(N)=O (stereo partly shown) [lutetium-177 labelled]; test system = female BALB/c nu/nu mice, stomach; setting = intravenous, 100 pmol, 4 h, with: PA 300 µg; measurement = tissue uptake; value = 0.28 ± 0.02 %ID/g
SMILES = O=C(CCCCCCC(=O)Nc1ccccc1)NO; tested on = HDAC8 (Homo sapiens, UniProt Q9BY41); test = ITC; test system = Tris-HCl buffer; setting = 278 K; measurement = TΔS°; value = 1.99 kcal/mol
SMILES = NC(=O)NOCCCCCCCCCCCC[P+](c1ccccc1)(c1ccccc1)c1ccccc1.O=C([O-])C(F)(F)F; tested on = MT-CYB/UQCRFS1; test = complex III-dependent respiration, Seahorse XF96; test system = HCT-116; setting = 1 µM, 24 h; scale = reference: control; measurement = oxygen consumption rate; value = 92.1 ± 11.1%
